Measured values gathered from unrelated publications.
Every numbered part comes from another study and shows a few of its results, in no order. Substitutions count along the parent as printed.

Block 1 — technique: protein-binding microarray; molecule type: double-stranded DNA, one strand shown; matrix: in vitro; concentration: 2540 nM top; setting: 60-bp whole probe; with: salmon DNA 0.4 mg/ml; relative to: random background probes; reading: higher = stronger binding; all sequences stand within: GCCTAGCAC … GTCTTGATTCGCTTGACGCTGCTG
Target: Interferon regulatory factor 3, full length, phosphomimetic (IRF3, Homo sapiens, UniProt Q14653, residues 1-427, S386D/S396D/S398D/S402D/T404D/S405D)
Target sequence (chain): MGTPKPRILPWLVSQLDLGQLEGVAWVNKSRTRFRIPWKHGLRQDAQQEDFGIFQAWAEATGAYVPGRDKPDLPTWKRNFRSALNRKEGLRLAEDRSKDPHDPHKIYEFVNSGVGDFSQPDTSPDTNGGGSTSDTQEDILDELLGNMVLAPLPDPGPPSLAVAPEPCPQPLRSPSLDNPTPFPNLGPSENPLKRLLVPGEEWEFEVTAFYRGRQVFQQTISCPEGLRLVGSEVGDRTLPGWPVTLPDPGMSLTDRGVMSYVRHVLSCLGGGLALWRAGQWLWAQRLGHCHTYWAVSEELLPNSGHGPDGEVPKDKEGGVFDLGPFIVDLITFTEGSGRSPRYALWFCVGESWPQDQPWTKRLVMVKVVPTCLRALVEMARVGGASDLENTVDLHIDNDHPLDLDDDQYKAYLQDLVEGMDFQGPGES
Sequence | fitted relative affinity [z-score]
TTAGGTTCCGGTATCGGTTAGTGCTAG | 4.84
TCACATTTCACAGTTAAACTGTGCTAG | 1.7
GACGATCTCAGACTGCAGACGTGCTAG | 0.253
CACGGACTGGGGTTTCGGGACGTGCTA | 0.55
TCATGTTTCCTCTTTCAACTGTGCTAG | 3.84
TTAGGTATCGGTTATCGGTTAGTGCTA | 3.86
CACGATTTCAGTATCGAGACGTGCTAG | 1.92
GATTTTTTCTGCTTAGAGCTGTGCTAG | 0.631
GACGGTATCGGCTATCGGGACGTGCTA | 0.554
TTAGGTATCGACTTTAGGTTAGTGCTA | 0.615
TCAAAAATGAATATTAGACTGTGCTAG | -0.166
TTCGGACTGCTACTGCTTTAGTGCTAG | -0.652
GACGGTATCGACTATCGGGAAGTGCTA | 0.658
GACGGTATCGGAGTGGGGACGTGCTAG | 1.87
GACGGACTGGACTATCGGGCCGTGCTA | -0.596
AGGACTCGAATCCTGCAGGGGTGCTAG | -0.144
GACGGTTTCGACTATCGCGACGTGCTA | 2.89
GACGATTTCGGGTTTAGAGACGTGCTA | 2.39
TTCATTATTGTTTCCTTCCTGTGCTAG | 4.46

Block 2 — technique: DHFR PCA, deep sequencing; matrix: yeast; with: (+)-ABA 200 µM; relative to: wild-type fitted maximum; reading: higher = stronger binding
Target: ABI1, truncated, D143A, DHFR fusion (Arabidopsis thaliana)
Setting: methotrexate growth selection, single substitutions
Starting sequence: PYL1, truncated, DHFR fusion (Arabidopsis thaliana); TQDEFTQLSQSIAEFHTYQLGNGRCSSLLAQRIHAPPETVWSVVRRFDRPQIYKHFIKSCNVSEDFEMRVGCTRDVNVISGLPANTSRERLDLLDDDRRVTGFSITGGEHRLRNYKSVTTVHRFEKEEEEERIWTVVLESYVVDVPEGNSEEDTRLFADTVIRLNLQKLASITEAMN; partner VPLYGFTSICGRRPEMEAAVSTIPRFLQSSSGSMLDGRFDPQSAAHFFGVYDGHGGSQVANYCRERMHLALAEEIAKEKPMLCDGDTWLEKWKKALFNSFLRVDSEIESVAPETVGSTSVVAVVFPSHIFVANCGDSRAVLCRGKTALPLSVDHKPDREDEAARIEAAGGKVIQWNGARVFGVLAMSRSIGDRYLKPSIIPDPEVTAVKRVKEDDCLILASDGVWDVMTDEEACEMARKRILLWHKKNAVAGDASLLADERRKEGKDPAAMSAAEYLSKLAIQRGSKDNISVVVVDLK
Substitution | relative binding score [%]
G21E | 105
T120Q | 50.1
A30C | 101
S26R | 85.5
I33V | 94
H122Q | 67.8
S11H | 96.9
Y53P | 12.4
F103R | -12.9
Q19W | 77.4
C72S | 100
S87I | 25.2
S117C | 72.8
S171L | 93.7
E14A | 94.3
H55M | 107
E130G | 109
S59N | 98.3
R123H | 100

Block 3 — technique: protein binding microarray; molecule type: double-stranded DNA, one strand shown; matrix: in vitro; concentration: not given; relative to: not given; reading: higher = stronger binding
Target: Histone acetyltransferase KAT6A, both winged helices, GST fusion (KAT6A, Homo sapiens, UniProt Q92794, residues 1-181)
Setting: 8-mer, flanks averaged, mean of 2 arrays, mostly near background
Residues (chain): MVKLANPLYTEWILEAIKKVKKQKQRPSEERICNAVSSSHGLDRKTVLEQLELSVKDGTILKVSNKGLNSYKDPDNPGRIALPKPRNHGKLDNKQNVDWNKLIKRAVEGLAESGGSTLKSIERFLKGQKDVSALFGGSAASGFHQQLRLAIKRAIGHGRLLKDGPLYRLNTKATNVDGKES
Sequence | E-score
GATATTGA | -0.138
CCAACTCC | -0.142
CACCTAAA | -0.204
CACGTCGC | 0.176
ATCAAAAA | -0.143
TCAATCGA | 0.0452
CTTGTTGC | -0.107
AACCCCAA | -0.276
ATGAGAAC | 0.000685
CACTGAGG | -0.0714
GTAATAAA | 0.0174
CTCTTGAC | -0.141
CACTCATA | -0.0481
GCCCTTTA | 0.0302
AGGCGAGC | -0.0833
AGATGCTG | -0.244
GCGAAACA | 0.126
GCGTTTCC | 0.18
CAGTGATC | -0.0758
AATCGTCG | 0.0195
TGTGGGAA | -0.166

Block 4 — technique: aptamer microarray, sandwich; molecule type: DNA with 2'F-ANA; matrix: in vitro; concentration: 200 nM; with: Cy3 exosite-II aptamer, 400 nM; reading: higher = stronger binding; sequence: GGTTGGTGTGGTTGG
Target: Prothrombin, mature alpha-thrombin (F2, Homo sapiens, UniProt P00734)
Setting: whole 15-mer aptamer, many near background
Modification | mean fluorescence intensity [a.u.]
2'F-ANA at 2 3 5 9 11 12 13 14 15 | 55.3
2'F-ANA at 4 5 6 7 8 12 13 14 15 | 48.3
2'F-ANA at 1 4 7 8 10 11 14 | 71
2'F-ANA at 1 2 5 7 8 11 12 14 | 48.2
2'F-ANA at 2 5 6 8 10 11 12 13 | 48.1
2'F-ANA at 3 7 9 11 | 1110
2'F-ANA at 1 3 6 7 8 11 13 15 | 242
2'F-ANA at 3 5 9 12 14 | 68.5
2'F-ANA at 3 4 7 9 10 12 14 15 | 215
2'F-ANA at 4 6 7 8 9 12 13 14 15 | 93.6
2'F-ANA at 1 4 5 8 11 13 14 | 48.6
2'F-ANA at 2 4 7 8 12 | 763
2'F-ANA at 1 3 5 6 7 8 9 11 | 59.2
2'F-ANA at 1 2 3 4 5 6 8 9 10 11 13 14 15 | 54.2
2'F-ANA at 1 3 4 5 6 7 12 13 | 74.1
2'F-ANA at 1 8 9 10 12 13 14 15 | 52.9
2'F-ANA at 4 6 11 12 14 | 106
2'F-ANA at 2 3 4 5 10 12 13 | 58.6

Some of these lines once more (block 4):
Modification | mean fluorescence intensity [a.u.]
2'F-ANA at 1 4 5 8 11 13 14 | 48.6
2'F-ANA at 2 3 5 9 11 12 13 14 15 | 55.3
2'F-ANA at 2 5 6 8 10 11 12 13 | 48.1
2'F-ANA at 4 6 11 12 14 | 106
2'F-ANA at 1 3 5 6 7 8 9 11 | 59.2
2'F-ANA at 2 3 4 5 10 12 13 | 58.6
2'F-ANA at 3 7 9 11 | 1110
2'F-ANA at 1 8 9 10 12 13 14 15 | 52.9
